Assay results gathered from unrelated publications.
Parts stem from different laboratories: compare values within a part only. Changes are numbered by the printed parent chain.

Set 1
Target: Centromere-binding protein 1, full length, N-terminal tag (CBF1, Saccharomyces cerevisiae, UniProt P17106, residues 1-351)
UniProt P17106, sequence (whole entry, looked up): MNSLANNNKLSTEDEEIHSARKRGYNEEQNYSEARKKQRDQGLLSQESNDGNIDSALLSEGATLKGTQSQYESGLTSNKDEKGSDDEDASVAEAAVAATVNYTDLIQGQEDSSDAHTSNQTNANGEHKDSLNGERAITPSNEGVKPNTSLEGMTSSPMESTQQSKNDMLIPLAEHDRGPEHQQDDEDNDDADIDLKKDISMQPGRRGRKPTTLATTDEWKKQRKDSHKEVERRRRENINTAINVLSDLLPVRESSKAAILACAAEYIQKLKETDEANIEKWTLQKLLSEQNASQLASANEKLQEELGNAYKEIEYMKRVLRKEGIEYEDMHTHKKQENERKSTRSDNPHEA
Method: protein-binding microarray
Molecule type: double-stranded DNA, one strand shown
Matrix: in vitro
Concentration: 0.8 µM
Setting: whole 60-bp probe, no competitor
Reading: higher = stronger binding
Quantity: fluorescence intensity
Shared flanks, not repeated: … GTCTTGATTCGCTTGACGCTGCTG
GAAATGGTGCAAGTTCACGTCAGTCAGTTGTTCTAG: 561 a.u.
CTATTTCCAGCGGATGGTGACGCGAGGCATCCGTTC: 511 a.u.
GAAATGATCTTCATACACGTTGTAATGCTACTGTAG: 566 a.u.
CTAAATTTTCATTCCGTGGTGCGTGATCTGATGTTC: 1420 a.u.
GAAAAAGTGACATATCACATGTATGGTAGTATCTAG: 1440 a.u.

Set 2
Target: Sal-like protein 4, full length isoform B (SALL4, Homo sapiens, UniProt Q9UJQ4-2, residues 1-616)
Method: universal PBM
Molecule type: double-stranded DNA, one strand shown
Matrix: in vitro
Concentration: not given
Setting: 8-mer, flanks averaged, mean of replicates
Reading: higher = stronger binding
Quantity: E-score
AAAGGCAC: -0.0107
ATCACCGC: -0.115
CTACTCTC: -0.0189
AACCTTAT: 0.206
CATCGACC: -0.137
AATTGCCC: 0.0646

Set 3
Target: CCNE2, cyclin fold, Cln2 fusion (human)
Method: yeast growth competition, sequencing
Matrix: yeast
Setting: strong parent motif
Baseline: not given
Reading: higher = stronger binding
Quantity: normalised enrichment score
Starting sequence: E2F1 docking peptide (human); PPVKRRLDLETDH
APVKRRLDLETDH [P1A]: 1.82
LPVKRRLDLETDH [P1L]: 2.75
DPVKRRLDLETDH [P1D]: 0.276
PPVKERLDLETDH [R5E]: 0.426
PPVKRRLRLETDH [D8R]: 1.52
PPVKRRLDLEADH [T11A]: 1.73

Mixed results
PhoQ, residues 284 288 289 292 302 303 HSYLQF
fold induction (PhoP, residues 12 14 15 18 19 LWHCS (Escherichia coli, UniProt P23836); Sort-seq, measured: YFP reporter; E. coli; PhoQ-PhoP variant library, with: 10 µM Mg2+; baseline: high Mg2+ state, higher = stronger signaling): 4.67

A few entries again (set 3):
LPVKRRLDLETDH [P1L]: 2.75
DPVKRRLDLETDH [P1D]: 0.276
